Measurements from different studies.
A part holds a random share of what one study measured.

Set 1
Target: Ras GTPase-activating protein-binding protein 1, full length (G3BP1, Homo sapiens, UniProt Q13283)
Sequence of UniProt Q13283 (whole entry, looked up): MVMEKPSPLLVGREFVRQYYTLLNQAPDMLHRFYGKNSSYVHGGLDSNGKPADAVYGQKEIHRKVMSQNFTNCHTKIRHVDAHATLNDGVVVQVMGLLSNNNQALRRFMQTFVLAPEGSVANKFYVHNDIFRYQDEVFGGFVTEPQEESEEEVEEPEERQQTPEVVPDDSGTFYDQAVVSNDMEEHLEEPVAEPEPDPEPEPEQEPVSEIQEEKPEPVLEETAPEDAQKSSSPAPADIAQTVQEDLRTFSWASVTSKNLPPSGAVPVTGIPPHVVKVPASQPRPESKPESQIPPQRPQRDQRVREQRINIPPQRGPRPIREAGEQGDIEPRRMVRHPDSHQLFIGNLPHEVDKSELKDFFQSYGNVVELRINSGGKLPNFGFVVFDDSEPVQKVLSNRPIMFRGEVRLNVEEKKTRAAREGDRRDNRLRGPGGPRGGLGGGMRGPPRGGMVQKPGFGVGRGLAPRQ
Technique: RNA Bind-n-Seq
Molecule type: RNA
Medium: in vitro
Tested at: 200 nM
Setting: whole 134-nt RNA, ends assumed
Added: 150 mM KCl
Baseline: input library
Direction: higher = stronger binding
`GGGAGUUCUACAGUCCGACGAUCAAGUCCUGUGCUACACAUCGUAUGUACCGAAUCGGGAAAAAAAGGGAAAGGGAGGGAAAGUAUUAUGUUACGCCGUUCGGAUCUGCACUUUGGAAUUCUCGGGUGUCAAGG` gave a log2 enrichment of 0.402.
`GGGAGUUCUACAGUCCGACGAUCCUCAAGUCCUGUGCUACACAUCGUAUGUACCGAAUCGGAAAGGUUUGGUUUGGAAAGUAUUAUGUUACGCCGUUCGGAUCUGCACUUCCAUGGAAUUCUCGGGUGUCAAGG` has a log2 enrichment of -0.47.
For `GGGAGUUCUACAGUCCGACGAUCACCAUGCAGGUGGGCAAAUUUGGGAAGUGGGGCAAGGGGGGGAUAGGGAGGGGGGUAACACUUUGGGAACAGGUGGUCCCAGGUCGUUUCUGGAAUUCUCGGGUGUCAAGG`, the log2 enrichment was 1.09.
The log2 enrichment of `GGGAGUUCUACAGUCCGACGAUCAGUCCUGUGCUACACAUCGUAUGUACCGAAUCGGGGAAAAGGAAAAGGGGAAAAGGGGAAAGUAUUAUGUUACGCCGUUCGGAUCUGCACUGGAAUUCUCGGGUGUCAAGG` is reported as -0.00826.
`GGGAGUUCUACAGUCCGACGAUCAAGUCCUGUGCUACACAUCGUAUGUACCGAAUCGGGAAAAAAAGGGAAAGGGUGGGAAAGUAUUAUGUUACGCCGUUCGGAUCUGCACUUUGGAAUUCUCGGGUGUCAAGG` has a log2 enrichment of 0.364.

Set 2
Target: Histone acetyltransferase KAT6A, winged helix 2, GST fusion (KAT6A, Homo sapiens, UniProt Q92794, residues 85-181)
Technique: protein binding microarray
Molecule type: double-stranded DNA, one strand shown
Medium: in vitro
Tested at: not given
Setting: 8-mer, flanks averaged, mean of 2 arrays, mostly near background
Baseline: not given
Direction: higher = stronger binding
Target sequence (chain): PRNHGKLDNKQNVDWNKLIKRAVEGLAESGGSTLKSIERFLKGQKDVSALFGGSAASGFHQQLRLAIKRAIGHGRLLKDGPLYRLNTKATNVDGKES
The E-score of `AGAGGATG` is reported as -0.163.
The E-score of `GTCTCAAA` is reported as -0.155.
The E-score of `AATAAATA` is reported as 0.209.
The E-score of `ACGATTAA` is reported as -0.00185.
For `GGGGACCA`, the E-score was 0.0618.
`CCGGGAAC` gave an E-score of 0.173.
`TATCTGCA` gave an E-score of -0.0563.
`GGCAGTTA` gave an E-score of -0.0391.
The E-score of `CTCGAAGC` is reported as 0.0433.
The E-score of `ACCATGCA` is reported as -0.0122.

Set 3
Target: Sal-like protein 4, full length isoform B (SALL4, Homo sapiens, UniProt Q9UJQ4-2, residues 1-616)
Technique: universal PBM
Molecule type: double-stranded DNA, one strand shown
Medium: in vitro
Tested at: not given
Setting: 8-mer, flanks averaged, mean of replicates
Direction: higher = stronger binding
For `CGAAACCA`, the E-score was 0.14.
`GCAGGGAA` gave an E-score of -0.144.
The E-score of `TATCAGCA` is reported as 0.0559.
`CCCACGAG` gave an E-score of -0.374.
`ACGCGTCA` has an E-score of 0.0848.
`AATTGTAA` has an E-score of 0.318.
`ACCACACC` gave an E-score of -0.302.

Other studies, line by line
`PhoQ, residues 284 288 289 292 302 303 ASASEQ` gave a fold induction of 1.03 (PhoP, residues 12 14 15 18 19 QWHVF (Escherichia coli, UniProt P23836); Sort-seq, measured: YFP reporter; E. coli; PhoQ-PhoP variant library, added: 10 µM Mg2+; baseline: high Mg2+ state, higher = stronger signaling).

For quick reference, copied from above (set 2):
`CCGGGAAC` gave an E-score of 0.173.
The E-score of `GTCTCAAA` is reported as -0.155.
